Published values from different studies.
Each line is one published result; not all experiments were run side by side. Numbers after ± are the reported error.
USP13 ZnF-UBD domain: Ubiquitin carboxyl-terminal hydrolase 13, ZnF-UBD domain (USP13, Homo sapiens, UniProt Q92995)
Sequence of UniProt Q92995 (whole entry, looked up): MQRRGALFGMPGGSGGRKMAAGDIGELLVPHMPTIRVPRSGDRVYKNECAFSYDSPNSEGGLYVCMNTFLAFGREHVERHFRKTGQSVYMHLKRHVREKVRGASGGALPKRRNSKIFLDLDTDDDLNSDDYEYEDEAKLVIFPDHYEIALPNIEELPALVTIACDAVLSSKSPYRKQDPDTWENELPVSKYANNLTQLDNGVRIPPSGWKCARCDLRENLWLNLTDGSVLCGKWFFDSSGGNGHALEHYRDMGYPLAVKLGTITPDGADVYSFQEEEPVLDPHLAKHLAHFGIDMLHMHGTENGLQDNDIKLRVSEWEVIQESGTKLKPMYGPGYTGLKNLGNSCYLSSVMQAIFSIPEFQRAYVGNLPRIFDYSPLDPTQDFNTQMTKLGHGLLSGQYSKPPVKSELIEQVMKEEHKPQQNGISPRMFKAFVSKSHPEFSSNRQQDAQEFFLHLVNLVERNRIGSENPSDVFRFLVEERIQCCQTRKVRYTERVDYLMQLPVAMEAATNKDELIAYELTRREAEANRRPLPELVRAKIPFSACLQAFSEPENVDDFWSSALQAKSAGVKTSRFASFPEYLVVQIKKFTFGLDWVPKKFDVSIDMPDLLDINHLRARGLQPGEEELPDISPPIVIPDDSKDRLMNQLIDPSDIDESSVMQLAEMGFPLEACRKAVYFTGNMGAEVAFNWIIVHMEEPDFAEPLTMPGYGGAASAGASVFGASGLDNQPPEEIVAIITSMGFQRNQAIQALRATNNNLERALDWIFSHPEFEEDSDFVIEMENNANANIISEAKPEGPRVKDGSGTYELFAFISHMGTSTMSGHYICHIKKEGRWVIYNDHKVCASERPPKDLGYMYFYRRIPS

| Compound | target or system | test | system | conditions | how to read | measurement | result |
| --- | --- | --- | --- | --- | --- | --- | --- |
| C[C@H]1CN(C(=O)CC#N)[C@]12CCN(c1ncnc3[nH]ccc13)C2 | – | – | healthy adults, plasma | oral, 6 mg single dose | – | Tmax, mean | 54 min |
| NC1(C(=O)N[C@@H](CCO)c2ccc(Cl)cc2)CCN(c2nc[nH]c3nccc2-3)CC1 | – | – | metastatic CRPC patients | 400 mg b.i.d., any grade, treatment-related, added: enzalutamide 160 mg daily | – | incidence of Neutropenia | 14.3% |
| CC(C)=CCC/C(C)=C/C(=O)O.Cc1cc(/C=C/C#N)cc(C)c1Nc1ccnc(Nc2ccc(C#N)cc2)n1 | – | – | water | – | – | equilibrium solubility | 5.24 ± 0.12 µg/mL |
| CC[C@@H]([C@H](C)O)n1ncn(-c2ccc(N3CCN(c4ccc(OC[C@@H]5CO[C@@](Cn6cncn6)(c6ccc(F)cc6F)C5)cc4)CC3)cc2)c1=O | – | – | rat plasma | 2 ng/mL, 4 h, 10 °C, autosampler | relative to: nominal concentration | stability relative error | 3.3% |
| O=C(OC(C(F)(F)F)C(F)(F)F)N1CCN(Cc2cccc(Oc3ccccc3)c2)CC1 | – | PET blocking study | rhesus monkey, brain CB | 0.1 mg/kg, compound pretreatment, added: [18F]T-401 tracer | – | k2 | 0.943 min⁻¹ |
| Cc1cccc([C@H]2N[C@@H](c3ccc4ccccc4c3)COC2(C)C)c1 | – | shake-flask, LC-HRMS | aqueous buffer | 16 h, pH 6.8 | – | solubility | < 4 µM |
| CCCCOC(=O)N1CCN(C(=O)[C@H](CP(=O)(O)O)NC(=O)c2cc(N3CC[C@H](OC)C3)nc(-c3ccccc3)n2)CC1 | – | – | human | subcutaneous, 16 mg, 1 h post-dose | relative to: baseline | change in QTcB interval | -3.2 ± 15 ms |
| CCO[C@H]1CCN(Cc2c(OC)cc(C)c3[nH]ccc23)[C@H](c2ccc(C(=O)O)cc2)C1 | – | – | PNH patients, active haemolysis | oral, 25 mg, 4 weeks, treatment | – | incidence of dry throat | 0% |
| COc1ccc2c(c1)sc(-c1ccc(N(C)C)cc1)[n+]2C | – | – | PBS | free dye | – | Stokes shift | 70 nm |
| C=CC[C@@H]1/C=C(\C)C[C@H](C)C[C@H](OC)[C@H]2O[C@@](O)(C(=O)C(=O)N3CCCC[C@H]3C(=O)O[C@H](/C(C)=C/[C@@H]3CC[C@@H](O)[C@H](OC)C3)[C@H](C)[C@@H](O)CC1=O)[C@H](C)C[C@@H]2OC | – | – | Wistar Kyoto rat, male, plasma | ip, 0.5 mg/kg/day, day 18 | – | plasma Cl− level | 99 ± 1 mmol/L |
| C[C@@H](Oc1ccc(S(C)(=O)=O)cc1C(=O)N1C[C@@H]2C[C@]2(c2cc(C(F)(F)F)on2)C1)C(F)(F)F | – | – | healthy young humans, plasma | oral, 10 mg once daily | relative to: AUCtau,ss over AUC(0-inf) | linearity index | 1.02 |
| CCOCc1nc(O)c(-c2nnc(Cc3ccc(Cl)cn3)o2)c(O)c1-c1c(OC)cccc1OC | – | – | anaesthetized rats, plasma | intravenous infusion, 1 µg/kg/min for 15 min, 30 min washout | – | plasma concentration | 35 ± 1 nM |
| N=C(N)NC(=O)c1ccc(Cl)c(S(N)(=O)=O)c1 | – | – | aqueous buffer | pH 7.4 | – | solubility | > 3510 µg/mL |
| CCN1/C(=C/C(C)=O)Sc2ccc(F)cc21 | – | – | cynomolgus monkey | oral, 10 mg/kg, 24 h post-dose | – | QRS duration | 36 ± 1 ms |
| Cc1ccc(C(=O)O)cc1S(=O)(=O)Nc1cccc(C(=O)CCC(=O)O)c1 | USP13 ZnF-UBD domain | – | – | – | – | Kd | > 1000 µM |
| Cn1cc(-c2ccc(-c3cncc(Cl)c3N3CCC4(CCNC4=O)CC3)cc2)cn1 | COLO 205 | gene expression, microarray, measured: PCK2 mRNA | – | concentration not given, 6 h | relative to: untreated cells | log2 fold change | -2.13 |
| Cc1cc([C@H]2C[C@H]3[C@@H](CF)SC(N)=N[C@@]3(c3ccc(F)cc3F)CO2)on1 | – | – | 129/SVE wild-type mouse, male | subcutaneous, 30 mg/kg, 7 h | – | CSF concentration | 6 nM |
| Cc1c(Cl)c(C)[n+]([O-])c(Cl)c1-c1noc(-c2cc(O)c(O)c([N+](=O)[O-])c2)n1 | – | – | healthy Chinese human | oral, 100 mg | – | any treatment-emergent adverse event | 33.3% |
| Clc1cc(Cl)cc([C@@H]2COC[C@H](C3CCCCC3)N2)c1 | – | shake-flask, LC-HRMS | aqueous buffer | 16 h, pH 6.8 | – | solubility | < 4 µM |
| O=c1[nH]c(=O)n([C@H]2C[C@H](O)[C@@H](CO)O2)cc1CCC[18F] | – | – | male CD-1 nu/nu mice, RG2 tumour, spleen | intravenous, dose not given, 2 h | – | biodistribution | 0.31 ± 0.11 %ID/g |
| Cc1ccc([C@@H]2O[C@H](CO)[C@@H](O)[C@H](O)[C@H]2O)cc1Cc1ccc(-c2ccc(F)cc2)s1 | – | – | Japanese type 2 diabetes patients | 200 mg, day 1, 24 h urine collection | relative to: baseline | urinary sodium excretion change | 44.3 mEq |
| CN1CCN(c2cccc3c2CCN(C(=O)/C=C/c2c(-n4cnnn4)ccc(Cl)c2F)[C@@H]3C(=O)Nc2ccc(C(=O)O)cc2)C(=O)C1 | – | – | healthy human subjects | intravenous infusion, 9 mg/h, 5 days | – | discontinuations due to adverse events | 0% |
| CNCc1ccc(-c2[nH]c3cc(F)cc4c3c2CCNC4=O)cc1 | – | – | human patients | oral, 600 mg twice daily, grade 2 | – | vomiting incidence | 0% |

| Compound | target or system | test | system | conditions | how to read | measurement | result |
| --- | --- | --- | --- | --- | --- | --- | --- |
| O=C(Nc1cnccc1Cl)N1CCN(Cc2ccc3c(c2)OC(F)(F)O3)CC1 | – | measured: Fatigue | human healthy young women | 100 mg, multiple dose | – | adverse event incidence | 33.3% |
| Cc1c(-c2ccc(N3CCc4cccc(C(=O)Nc5nc6ccccc6s5)c4C3)nc2C(=O)O)cnn1CC12CC3(C)CC(C)(C1)CC(OCCNCC[C@H](O)CO)(C3)C2 | – | – | beagle dog, anaesthetised | intravenous infusion, 0.1 mg/kg/min, 120 min | relative to: baseline | mean arterial pressure change | -8 mmHg |
| CCCCC[C@H]1CC[C@H](c2ccc(OCC)c(F)c2F)CC1 | – | – | rat, placenta | 1000 ng/mL in perfusate, middle dose, mixture of 21 LCMs | – | placental accumulation | 21.9 ± 19.1 ng/g |
| CCC(CC)[C@H]1COC[C@@H](c2ccc(C(C)(C)C)cc2)N1 | – | shake-flask, LC-HRMS | aqueous buffer | 16 h, pH 6.8 | – | solubility | < 4 µM |
| COc1cc(C(=O)N2CCC3(CC2)CC(=O)c2c(cnn2C(C)C)C3)cc(-c2ccc(C(=O)O)cc2)n1 | – | measured: direct LDL cholesterol | human, fasting serum | 1 mg every 12 h, day 13, adjusted geometric mean | relative to: baseline and placebo | placebo-adjusted change from baseline | -1.4% |
| Cc1ccc(OC2CCN(c3c(C#N)cnc4ccc(F)cc34)CC2)cn1 | – | – | Sprague-Dawley rat, brain and plasma | intravenous, 0.2 mg/kg, cassette, 0.25 h | – | Kp,uu brain to plasma | 2.4 |
| C=CC(=O)Nc1cc(Nc2nccc(-c3c[nH]c4ccccc34)n2)c(OC)cc1N(C)CCN(C)C | – | – | human, plasma | cycle 3 day 1, osimertinib alone, randomized arm | – | Tmax at steady state | 4 h |
| C[C@H](CCC(=O)O)[C@H]1CC[C@H]2[C@@H]3[C@H](O)C[C@@H]4C[C@H](O)CC[C@]4(C)[C@H]3C[C@H](O)[C@]12C | – | – | human, plasma | endogenous baseline diurnal | – | Cmin | 15.6 ± 3.2 nM |
| Cn1cc(Nc2nccc(-c3ccc4c(c3)CN(C3COC3)CC[C@H]4NC(=O)c3cn(C(C)(C)C)nn3)n2)cn1 | – | – | human, whole blood | 150 mg twice daily, day 7 | relative to: pre-dose baseline | monocyte count change | -2.15% |
| CCO[C@H]1CCN(Cc2c(OC)cc(C)c3[nH]ccc23)[C@H](c2ccc(C(=O)O)cc2)C1 | – | – | human moderate hepatic impairment, plasma | oral, 200 mg single dose, geometric mean | – | total half-life | 1460 min |
| C[C@@H](NC(=O)N1C(=O)[C@H](Cc2ccnc(N)c2)[C@H]1C(=O)O)C1CCCCC1 | – | UPLC-MS/MS | healthy adult Chinese volunteers, plasma | continuous intravenous infusion, 0.3 mg/kg/h, day 1 of 5-day infusion, geometric mean | – | Css | 937 ng/mL |
| CC[C@H]1CC[C@H](c2ccc(-c3ccc(F)c(F)c3)cc2)CC1 | – | – | rat, placenta | 5000 ng/mL in perfusate, high dose, mixture of 21 LCMs | – | placental accumulation | 231 ± 356 ng/g |
| CCc1cc(C(=O)NC)c2nccc(N3CCc4c(cc(Cn5ccnc5)cc4-c4cn(C)nc4C(F)(F)F)C3=O)c2c1 | – | – | Sprague Dawley rats | oral, 50 mg/kg once daily, 7 days | – | serum TBA level | 21.1 ± 19.5 µmol/L |
| CC(=O)O[C@H]1C(=O)[C@@]2(C)[C@H]([C@H](OC(=O)c3ccccc3)[C@]3(O)C[C@H](OC(=O)[C@H](O)[C@@H](NC(=O)c4ccccc4)c4ccccc4)C(C)=C1C3(C)C)[C@]1(OC(C)=O)CO[C@@H]1C[C@@H]2O | – | – | patients with advanced solid tumours | intravenous, dose not given, phase Ib, not related to compound | – | adverse events, any | 6% |
| O=C(O)CCn1cccn1 | USP13 ZnF-UBD domain | – | – | – | – | Kd | 98.2 µM |
| N#Cc1ccc2c(c1)[C@H]1CCCN(C(=O)c3ccc4[nH]cnc4c3)[C@H]1C2 | – | – | human, plasma | oral, 80 mg once daily, steady state | – | Cmax steady state | 6.71 µM |
| O=C(O)CCCOc1ccc([18F])cc1-c1cc(-c2ccccc2C(F)(F)F)n(-c2ccccc2)n1 | – | gamma counting | male ddY mice, lung | intravenous, 2.1 MBq, 1 min | – | radioactivity uptake | 1.42 ± 0.73 SUV |
| CC(C)(C(=O)N1CCOc2c(C#N)cncc2C1)C(F)F | – | – | human, both sexes | oral, 10 mg single dose | – | subjects with cardiac disorder TEAE | 16.7% |
| CCOC(=O)N1C[C@@H](C2CCOCC2)N[C@@H](C2CCOCC2)C1 | – | shake-flask, LC-HRMS | aqueous buffer | 16 h, pH 6.8 | – | solubility | > 750 µM |
| COc1ccc2c(C)nc(Nc3nc(C)cc(O)n3)nc2c1 | – | – | aqueous buffer | pH 7.4 | – | solubility | < 1.27 µg/mL |
| CCOC(=O)N1C[C@@H](c2ccc(C(C)(C)C)cc2)N[C@@H](c2ccc(N3CCCC3)cc2)C1 | – | shake-flask, LC-HRMS | aqueous buffer | 16 h, pH 6.8 | – | solubility | < 4 µM |
| CC(C)NCCCC[C@@H]1NC(=O)[C@H](Cc2ccc(O)cc2)NC(=O)[C@H](Cc2ccccc2)NC(=O)CC[C@H](C(=O)N[C@@H](CCCCNC(C)C)C(=O)N[C@@H](CCCCNC(=O)[C@H](CCC(=O)O)NC(=O)[C@H](CCC(=O)O)NC(=O)[C@H](CCC(=O)O)NC(=O)CN2CCN(CC(=O)O)CCN(CC(=O)O)CCN(CC(=O)O)CC2)C(N)=O)NC(=O)CNC(=O)[C@H](Cc2ccc3ccccc3c2)NC(=O)[C@@H](CCCNC(=N)N)NC1=O [gallium-68 labelled] | – | – | mouse with PC-3 xenograft, intestine | intravenous, 1 h | – | tissue uptake | 0.3 %ID/g |
